Experimental data from different studies.
Lines come from different studies, so protocols differ. ± gives the spread as reported.
Cell line: U-87 MG

Compound | test | setting | how to read | quantity | result
COc1cc(C#N)c(Oc2ccccc2C)cc1-n1c(=O)cc(S(=O)(=O)c2ccccc2)[nH]c1=O | – | – | – | IC50 | ~24 µM
Cc1ccc(C(=O)Nc2ccc(Oc3cc4cnn(C)c4cc3-c3cn[nH]c3)c(F)c2)c(=O)n1-c1ccc(F)cc1 | cell proliferation, CellTiter-Glo | curve plateau | – | maximal inhibition | 45%
NS(=O)(=O)c1ccc(Nc2nc3noc(-c4cccc(O)c4)c3s2)cc1 | MTT | – | – | IC50 | 9.51 µM
CC[C@H](C)[C@H](NC(=O)[C@H](CCC(N)=O)NC(=O)CNC(=O)[C@H](Cc1c[nH]cn1)NC(=O)[C@H](CCCCN)NC(=O)[C@H](Cc1c[nH]cn1)NC(=O)[C@H](Cc1c[nH]cn1)NC(=O)CN)C(=O)N[C@@H](CCSC)C(=O)N1CCC[C@H]1C(=O)N[C@@H](CCSC)C(=O)N[C@@H](CO)C(=O)NCC(=O)NCC(=O)NCC(=O)N[C@@H](CO)C(=O)N[C@@H](CCCCNC(=O)CCCC[C@@H]1SC[C@@H]2NC(=O)N[C@@H]21)C(=O)O | confocal microscopy | 10 µM, 20 min, 37 °C, biotin-labelled peptide | – | binding | binds
NS(=O)(=O)c1ccc(Nc2nc3noc(-c4ccc(Cl)cc4)c3s2)cc1 | MTT | – | – | IC50 | 7.02 µM
COc1cc(C#N)c(Oc2ccccc2C)cc1-n1c(=O)cc(C(N)=O)[nH]c1=O | – | – | – | IC50 | ~30 µM
C=C1C[C@](OC)([C@H](OCOC/C=C/B2OC(CC)(CC)C(CC)(CC)O2)C(=O)NC[C@@H]2C[C@@H](OC)C(C)(C)[C@@H](C[C@@H](COC)OC)O2)O[C@H](C)[C@@H]1C | cell viability, sulforhodamine B | 72 h, 37 °C, with: H2O2 100 µM | – | IC50 | 0.026 ± 0.001 µM
COc1cccc2c1C(=O)c1c(O)c3c(c(O)c1C2=O)C[C@@](O)(C(=O)CO)C[C@@H]3O[C@H]1C[C@H](N)[C@H](O)[C@H](C)O1 | cytotoxicity, WST-1 | 72 h, highest tested concentration | – | Emax | 79.9%
CC(=O)O[C@H]1C(=O)[C@@]2(C)[C@H]([C@H](OC(=O)c3ccccc3)[C@]3(O)C[C@H](OC(=O)[C@H](O)[C@@H](NC(=O)c4ccccc4)c4ccccc4)C(C)=C1C3(C)C)[C@]1(OC(C)=O)CO[C@@H]1C[C@@H]2O | cell growth | – | – | IC50 | 1 mg/L
C#Cc1cccc(Nc2ncnc3cc(OCCOC)c(OCCOC)cc23)c1 | – | 24 h | – | IC50 | 63 ± 5 µM
Nc1ccn([C@@H]2O[C@H](CO)[C@@H](O)C2(F)F)c(=O)n1 | cell proliferation, CCK-8 | 4 d | reference: untreated | ED50 | 0.0011 ± 0.0014 µM

Excerpt of the above:
Compound | test | setting | how to read | quantity | result
C=C1C[C@](OC)([C@H](OCOC/C=C/B2OC(CC)(CC)C(CC)(CC)O2)C(=O)NC[C@@H]2C[C@@H](OC)C(C)(C)[C@@H](C[C@@H](COC)OC)O2)O[C@H](C)[C@@H]1C | cell viability, sulforhodamine B | 72 h, 37 °C, with: H2O2 100 µM | – | IC50 | 0.026 ± 0.001 µM
COc1cccc2c1C(=O)c1c(O)c3c(c(O)c1C2=O)C[C@@](O)(C(=O)CO)C[C@@H]3O[C@H]1C[C@H](N)[C@H](O)[C@H](C)O1 | cytotoxicity, WST-1 | 72 h, highest tested concentration | – | Emax | 79.9%
